Measurements pooled from the literature.
Each numbered part is a random draw from the data of one study; scales do not carry over between parts. Changes are numbered by the printed parent chain.

Sample 1 — target: CCNB2, cyclin fold, Cln2 fusion (human); technique: yeast growth competition, sequencing; sample: yeast; notes: weak parent motif; baseline: not given; direction: higher = stronger binding
Starting sequence: RBL1 docking peptide (human); GSAKRRLFGEDPP; partner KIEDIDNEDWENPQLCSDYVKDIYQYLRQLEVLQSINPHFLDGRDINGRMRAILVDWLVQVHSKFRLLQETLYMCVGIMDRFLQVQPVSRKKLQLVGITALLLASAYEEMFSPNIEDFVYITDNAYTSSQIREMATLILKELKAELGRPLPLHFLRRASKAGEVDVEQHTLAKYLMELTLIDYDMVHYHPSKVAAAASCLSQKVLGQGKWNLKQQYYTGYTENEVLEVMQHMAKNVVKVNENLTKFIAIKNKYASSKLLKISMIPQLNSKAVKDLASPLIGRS
Variant | normalised enrichment score
GSAKRPLFGEDPP [R6P] | -0.352
GSAKRRLFGEDNP [P12N] | 0.413
GSAKRRLCGEDPP [F8C] | 0.0118
GSAKRRLFGEDPN [P13N] | 0.0525
GSAKRRLFGRDPP [E10R] | 0.694
GSAKRRLFMEDPP [G9M] | 0.22
GSAKRRLFGEDPW [P13W] | 0.47
GSAKRRLFGERPP [D11R] | 0.0728
GSAKRRLDGEDPP [F8D] | 0.00355
GHAKRRLFGEDPP [S2H] | 0.267
GSMKRRLFGEDPP [A3M] | -0.136
GSAKRRLFGMDPP [E10M] | 0.476
GSAKARLFGEDPP [R5A] | -0.43
VSAKRRLFGEDPP [G1V] | 1
MSAKRRLFGEDPP [G1M] | -0.567
GSAIRRLFGEDPP [K4I] | 0.243
GSQKRRLFGEDPP [A3Q] | -0.0947
GSAKFRLFGEDPP [R5F] | -0.402

Sample 2 — technique: protein binding microarray; molecule type: double-stranded DNA, one strand shown; sample: in vitro; tested at: not given; baseline: not given; direction: higher = stronger binding
Target: Histone acetyltransferase KAT6A, both winged helices, GST fusion (KAT6A, Homo sapiens, UniProt Q92794, residues 1-181)
Notes: 8-mer, flanks averaged, mean of 2 arrays, mostly near background
Residues (chain): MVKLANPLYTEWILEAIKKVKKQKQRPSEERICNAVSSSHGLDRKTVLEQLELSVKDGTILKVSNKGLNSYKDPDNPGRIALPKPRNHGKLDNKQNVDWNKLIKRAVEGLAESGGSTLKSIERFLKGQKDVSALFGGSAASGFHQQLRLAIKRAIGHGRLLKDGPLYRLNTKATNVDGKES
Sequence | E-score
CCCCTCGA | -0.185
AGTTGCAG | -0.164
ACGCTCCA | 0.0311
GAATTCGC | 0.141
ATTACTGC | -0.0626
TATCTCGA | -0.096
ATATGACG | 0.0623
ATATCTCC | 0.0467
GCAATAGA | -0.0279
TCGAACCA | -0.143
CTCTAAAG | -0.195
GACTGCCA | -0.0882
CCTGCATC | -0.0893
CCGTTGAA | 0.169
GATCAATA | -0.101

Sample 3 — technique: protein-binding microarray; molecule type: double-stranded DNA, one strand shown; sample: in vitro; tested at: 250 nM; notes: 60-bp whole probe; added: salmon DNA 0.4 mg/ml; baseline: random background probes; direction: higher = stronger binding; all sequences stand within: GCCTAGCAC … GTCTTGATTCGCTTGACGCTGCTG
Target: Interferon regulatory factor 7, full length, phosphomimetic (IRF7, Homo sapiens, UniProt Q92985, residues 1-503, S101K/S471D/S472D/S475D/S476D/S477D/S483D/S484D/S487D)
Target sequence (chain): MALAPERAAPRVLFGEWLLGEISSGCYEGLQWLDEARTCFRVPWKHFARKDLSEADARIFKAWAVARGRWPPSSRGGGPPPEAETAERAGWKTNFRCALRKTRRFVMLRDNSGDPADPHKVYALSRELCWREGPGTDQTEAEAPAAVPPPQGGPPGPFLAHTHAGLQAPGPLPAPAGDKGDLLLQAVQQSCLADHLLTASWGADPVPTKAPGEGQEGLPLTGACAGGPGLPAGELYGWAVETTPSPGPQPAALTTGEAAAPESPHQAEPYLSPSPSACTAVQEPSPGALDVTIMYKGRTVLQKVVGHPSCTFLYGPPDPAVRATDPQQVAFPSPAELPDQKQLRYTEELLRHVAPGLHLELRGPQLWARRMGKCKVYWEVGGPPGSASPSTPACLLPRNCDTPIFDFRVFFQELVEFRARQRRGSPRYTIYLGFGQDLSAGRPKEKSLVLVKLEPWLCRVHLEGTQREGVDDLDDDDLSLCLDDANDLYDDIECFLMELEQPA
Sequence | log fluorescence
GACGGTTTCCTTCTCCCGACGTGCTAG | 2.96 z-score
TTAGCTTTCGACTATCGGTTAGTGCTA | 0.546 z-score
TTCGGTATCGACTTTCGGTTAGTGCTA | 3.12 z-score
TTAGCTATCAGTATCGATTAGTGCTAG | 0.367 z-score
TCACCTCTCTGTCCCCCTTTGTGCTAG | 0.739 z-score
TCATTTTTTTTTTTTTCACTGTGCTAG | 0.94 z-score
TCAGGTTTCCTTCTCCTTTAGTGCTAG | 2.42 z-score
TTAGAGATCGGGTATCGATTAGTGCTA | 0.355 z-score
TCATCTTTCATTGCTGCACTGTGCTAG | 0.587 z-score
TTAGGACTGCTACTGCTGTAGTGCTAG | -0.637 z-score
TTAGGACTGGACTATCGGTTCGTGCTA | -0.16 z-score
TAAGTTTCACTTTCCAAAGCGTGCTAG | 11.3 z-score
TCATTTCTATGTCTGTTACTGTGCTAG | 1.63 z-score
GACGGTATCGGGACTGGGAACGTGCTA | -0.18 z-score
TTAGGTCTCGTACTGGGTTAGTGCTAG | 0.615 z-score
TTAGATATGAGTTTCGATTAGTGCTAG | 7.96 z-score
GACGATATCAGTCTTGAGACGTGCTAG | -0.143 z-score
TTATGTATCCTTCTCCTTTAGTGCTAG | 0.581 z-score

Sample 4 — technique: RNA Bind-n-Seq; molecule type: RNA; sample: in vitro; tested at: not given; baseline: input RNA pool; direction: higher = stronger binding
Target: RING finger protein unkempt homolog, zinc fingers 1-6, GST-SBP tag (UNK, Homo sapiens, UniProt Q9C0B0, residues 30-357)
Notes: RNA with constant flanks, human-mouse chimeric sites, ends assumed
All sequences stand within: GGGAGUUCUACAGUCCGACGAUC … CAACAGAGGAUUGAGCAUCA
Construct (chain): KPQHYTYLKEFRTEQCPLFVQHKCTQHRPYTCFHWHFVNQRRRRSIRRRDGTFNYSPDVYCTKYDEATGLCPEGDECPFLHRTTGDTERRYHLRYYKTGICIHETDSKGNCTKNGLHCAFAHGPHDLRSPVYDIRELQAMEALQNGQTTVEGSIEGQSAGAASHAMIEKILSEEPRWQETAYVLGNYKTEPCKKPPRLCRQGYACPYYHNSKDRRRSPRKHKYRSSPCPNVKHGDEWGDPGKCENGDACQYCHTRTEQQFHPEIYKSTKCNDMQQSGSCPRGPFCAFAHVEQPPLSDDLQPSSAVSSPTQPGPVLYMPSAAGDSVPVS
Sequence | bound/input enrichment [ratio]
AGAAUCUUGGGACUGUUUUACUUAAUUGGUCAUUGAUAGCUUAACAAACAUGGAGAUAAGAUUAGAAGUUUUGACAUCAACAGGUAUCAAGCAGAAAAAACCAUGGCCACGUGUCUCCUG | 0.454
GCUGGAUCUUCUAAGUACCAGUGGGGCAUUAUGAAAUCCCUUGGGCUCUCUGAUGACGACAUAGUGAAGUUUUCUGAAGCAGAGCACUGGCUUGAUUAUUUCCCACCACUGGCCGUUCAG | 0.17
CCAAUUGUGGAGCAGUACUUGAAGACAAAGAAAAAUUCUAAUAAUUUAAUCAUCAAGUACAUUAGCUGCCGCCUGCUGACAUUUGUGAUUAUACUGUUAGCGUGUAUCUACCUGGGCUAU | 0.311
AAAAUAGACUAUGGCGAGUACAUGGAUAAAAACAAUGUGAGGCGGCAAGCAACAACAAUCAUAGCUGAUAACAUUAUAUUUCUGAGUGACCAGACAAAAGAAAAGGCGUAGAAAGGAUGA | 3.05
UAUUUUUGACAGCCACACAAUCUUGGCAUGUAUUAAGAAAAAAAAAAAUCCCUGUUGAAGUAGUUUUUCCACCUAUCAGCACUGAGUAAAUGCCAUAACUCCGCGGAAAUGGUCUAAAUA | 0.204
CGCUGGCCCAAGCUGAUGGACUCUGAUGGCCUCCAUCUCUCAGGCACGUGUGCCUUCUCUUAGUCCCUGUUUUCGGGAUGUUAUGAACAGUAUCAUGGUGGUUUGAAAGCACCAGCUUUG | 0.0921
GCGAACAGGACUACAGAAAUGCUGGUAAUUUCAGUCACUUGCUGAUGACUUCUGAUGACCUAGCAAAUGUUGGCAUUGUUGACUGCUGAGAAGAUACUUCUGAGGACCCACGUCUAAGGU | 0.108

Sample 5 — technique: RNA Bind-n-Seq; molecule type: RNA; sample: in vitro; tested at: 365 nM; baseline: no-protein control; direction: higher = stronger binding
Target: RNA binding protein fox-1 homolog 2, RRM domain, GST-SBP tag (RBFOX2, Homo sapiens, UniProt O43251-10, residues 100-194)
Notes: natural RNA segment, single round, ends assumed
All sequences stand within: GGGAGUUCUACAGUCCGACGAUC … UGGAAUUCUCGGGUGCCAA
Target sequence (chain): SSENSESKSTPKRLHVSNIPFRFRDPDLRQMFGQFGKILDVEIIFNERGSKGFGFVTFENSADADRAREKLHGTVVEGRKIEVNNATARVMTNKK
Sequence | RBNS enrichment (R)
GUCUCCCAUCAAGACUACCUCAUAGUCCAGUAGAUCCACUCCGUGACCAAGGACAUCAUGCUCUGUAUUUGACAGUAAAGUUUUACCUUAAAAAUGAGACCCCCAACUAC | 0.389
GGCUGCACUACAAUGUCCACAGGCAAGAGGCCCCCAGGCCACCAGCAAAUGUCCCGCCCCUGGGGACAGUGCGCCCGCUCGCCCUUGGUUGUGCUGGGCAGCAUUUGUAC | 1.01
CCCGAGCGAGCCCGUGAAUCUACCUGACAACCAAGCUGUGACAUUCAAAGAGACAAGGGACUCGUUUCUACCCCUGGUAAUGCGAGGUGCUGCUUCUGUGUGUCAAGGCU | 0.243
GCCUUGGGAGAAGUCUACAUUUCCCAGACAAUAGUCUAGGCCUCUGGAACAGUUUCCUUCUCUGCUUUUGACUUUAAAUCCCUGGGUGUCCCCCAGGAGUCAGUUUGCUA | 0.262
ACAUCACUACUUCUUAUGUAACUUCUUCCAGCCAGUGCUUUUAUUGUUCGUUUUAGUUUACUGGGGACACACAGGAGUCUUUCUGUAAUGACUUAUGUGGUAAAAUGUUU | 0.364
UAACUACUCCUAAAAAGGUUUUGAUUCAGGCUUUUUUUUGGUUUCAUUUUGUUUUUUUAAGAAAAAGAAAAUGAAAGGAAAAAAAUAAAAGAUCCAGUGUCUUUCUUACA | 0.537
CCUCACCGGGAGAGCUGGGGCGCUUCGAAGAUAAUCCCUACCCUCUACAUCAAAUGCGGCUGAGGCAUUUUACAGUGGUUUGCCAUUAGCGUGUUCAUUCAGAUAAUGUU | 0.237
UUAAAAUACAAAAAUUUAAAUCUGACAUUUAAUUGUUUUAUAAUAAUCCAAACUCUAUGAAAGCAAUUUUAAAAAUUAUUAAGGUUUUAUGAAGUUGACAAAAUCUAACU | 0.495
UCUUCACCCCUCCCUAGAUCUCACCUAAACAUGCUGUCCCUAAUAAAGCUGGAUAAGAAGCUGCUGUAGUGGGUGUCCCAUGUGCCUGGACGUCUGGGCAUGGGGAUGAG | 0.291
CAUGUGCAUUAAAUACUUUGCCAGCACUGCCUUUGCCAGCAUCCUAAAUCUGGAGUUUUACAAAGAAGGAAACUGUAUCUUUAGGUUAAUCAAAGCUAUGCAUUUCAUAU | 0.601
AAAUAUUAAAUGAUUUAGCAGUCUCCACGUGUGUUAAUGUUUCAAACGUGUAUCAUAAUGUGUAUAAUUGUGUAACAAAAUUGUCUACAAUAAAUCUUUUGGUAUUUGUG | 0.403
CCCAGGAGGGAGCGCCAUCAGAACCCAGGGAAUCUUUCUGAAGCCACACUCAUCUGACACACGUACACUUAGACCUGUCUCUUCUUUUGCUUUUCAAUUUUGGAAAGGGA | 0.476

For quick reference, copied from above (sample 5):
Sequence | RBNS enrichment (R)
CCCGAGCGAGCCCGUGAAUCUACCUGACAACCAAGCUGUGACAUUCAAAGAGACAAGGGACUCGUUUCUACCCCUGGUAAUGCGAGGUGCUGCUUCUGUGUGUCAAGGCU | 0.243
GCCUUGGGAGAAGUCUACAUUUCCCAGACAAUAGUCUAGGCCUCUGGAACAGUUUCCUUCUCUGCUUUUGACUUUAAAUCCCUGGGUGUCCCCCAGGAGUCAGUUUGCUA | 0.262
ACAUCACUACUUCUUAUGUAACUUCUUCCAGCCAGUGCUUUUAUUGUUCGUUUUAGUUUACUGGGGACACACAGGAGUCUUUCUGUAAUGACUUAUGUGGUAAAAUGUUU | 0.364
UAACUACUCCUAAAAAGGUUUUGAUUCAGGCUUUUUUUUGGUUUCAUUUUGUUUUUUUAAGAAAAAGAAAAUGAAAGGAAAAAAAUAAAAGAUCCAGUGUCUUUCUUACA | 0.537
CCUCACCGGGAGAGCUGGGGCGCUUCGAAGAUAAUCCCUACCCUCUACAUCAAAUGCGGCUGAGGCAUUUUACAGUGGUUUGCCAUUAGCGUGUUCAUUCAGAUAAUGUU | 0.237
